# Measured values collected from several papers.
# Lines come from different studies, so protocols differ. Values joined by “and” are separate records of one study, mostly repeats; a detail may differ. Numbers after ± are the reported error.
# Organism: SARS-CoV-2
SMILES,test,test system,conditions,scale,endpoint,value
CC(C)(C)NC(=O)[C@@H](c1cccnc1)N(C(=O)c1ccco1)c1ccc(C(C)(C)C)cc1,viral replication,Vero,1 µM,,viral reduction,0.11%
COc1ccc(CCCCCCCCC(=O)c2c(OC)cccc2OC)cc1OC,,"Vero E6/TMPRSS2, WK-521 ancestral",,reference: CC50 over EC50,selectivity index,4.6
CC(=O)OC1(C)CC(C=C(C)CCC=C(C)C)OC2(C=C(CO)C3CC(=O)C(C)=CC3O2)C1 (stereo not drawn),"viral replication, refers to: nucleocapsid protein","Calu-3, Omicron BA.5",,,EC50,0.3 µM
Cc1oc2nc1C(=O)N[C@](C)(C(=O)NCCc1ccccc1)c1nc(c(C)o1)C(=O)N[C@](C)(C(=O)NCCc1ccccc1)c1nc(c(C)o1)C(=O)N[C@]2(C)C(=O)NCCc1ccccc1,viral replication,"Vero E6, NRC-03-nhCoV",20 µM,,inhibition,≤ 50%
CCCCCCCCCCCCCCCCOP(=O)(O)Oc1c2c(c(OP(=O)(O)OCCCCCCCCCCCCCCCC)c3c1C1CC3c3cc4c(cc31)C1CC4c3ccccc31)C1CC2c2cc3c(cc21)C1CC3c2ccccc21,spike pseudoparticle entry,Caco-2,,,IC50,40.6 µM
C(=N\Cc1cc(C/N=C/c2cccs2)cc(-c2cc(C/N=C/c3cccs3)cc(C/N=C/c3cccs3)c2)c1)/c1cccs1,,"mouse, brain",dose not given,,viral load,decreased
O=CC(O)C(O)C(O)C(O)COc1cc(O)c2c(=O)c(OCC(O)C(O)C(O)C(O)C=O)c(-c3ccc(O)c(O)c3)oc2c1 (stereo not drawn),,intracellular,concentration not given,,SARS-CoV-2 nucleoprotein level,decreased
CC(C)CCC1=C(O)C(=O)c2ccccc2C1=O,,Calu-3 and HepG2,,reference: HepG2 CC50 over antiviral EC50,selectivity index,35 ± 7
Oc1ccc(Br)cc1-c1nc2cc(C(F)(F)F)ccc2s1,"RT-qPCR, refers to: Orf1a",Huh-7,"30 µM, 48 h, unit not given",reference: DMSO,genomic RNA level,0.221 and 0.176
Cc1ccc(N2CC3CC(C2)N3)cc1C(=O)NC1(c2ccc3c4c(cccc24)C(=O)N3C)CC1,viral replication,"Vero C1008, Omicron BA.5",0.01715 µM,,inhibition,0%
CCn1ccc(-c2cc(-c3cnn(C)c3)cc([C@@H](C)NC(=O)c3cc(OCCN(C)C)ccc3C)c2)n1,viral replication,icSARS-CoV-2-nLuc reporter,,,EC90,1.59 µM
COc1cccc2[nH]c(C(=O)N[C@@H](CC(C)C)C(=O)N[C@@H](C[C@@H]3CCNC3=O)C(=O)c3nc4ccccc4s3)cc12,"viral replication, RT-qPCR","VeroE6, WK-521 ancestral",,,EC75,4.3 ± 0.58 µM
C=Cc1c(C)c2cc3nc(cc4[nH]c(cc5nc(cc1[nH]2)C(C)=C5CCC(=O)O)c(CCC(=O)OC)c4C)[C@@]1(C)C3=CC=C(C(=O)OC)[C@H]1C(=O)OC,cytopathic effect,Vero E6,up to 30.0 µM,,antiviral activity,inactive
CCCC/C=C/C(=O)N[C@@H](Cc1csc2ccccc12)C(=O)N[C@H]1COC(=O)[C@@H]2C[C@@H](C)CN2C(=O)[C@H](C)NC(=O)[C@@H]2CCCCN2C(=O)[C@@H]2CCCN2C1=O,HiBiT luminescence,HeLa replicon,"concentration not given, unit not given",reference: DMSO,replicon activity,0.565 and 0.489 and 0.702 and 0.491 and 0.465 and 0.439
CC(C)CC(C(=O)N1CC2(CC1C#N)C(=O)Nc1ccccc12)N(C)C(=O)c1cc2c(F)cc(F)c(F)c2[nH]1 (stereo not drawn),viral replication,Vero E6,1 µM,,inhibition,95.8% and 96.4% and 100% and 97.3%
O=P(O)(OCc1ccncc1)Oc1c2c(c(OP(=O)(O)OCc3ccncc3)c3c1C1CC3c3cc4c(cc31)C1CC4c3ccccc31)C1CC2c2cc3c(cc21)C1CC3c2ccccc21,spike pseudoparticle entry,Caco-2,,,IC50,41.9 µM
Cc1oc2nc1C(=O)N[C@](C)(C(=O)O)c1nc(c(C)o1)C(=O)N[C@](C)(C(=O)O)c1nc(c(C)o1)C(=O)N[C@]2(C)C(=O)O,viral adsorption,"Vero E6, NRC-03-nhCoV",2.5 µM,,inhibition,0%
O=C[C@H](C[C@@H]1CCNC1=O)NC(=O)[C@H](Cc1cccc(F)c1)NC(=O)c1cc2ccccc2[nH]1,,Vero C1008,,reference: CC50 over EC50,selectivity index,> 139
C[C@@H]1O[C@@H](n2c3ccccc3c3c4c(c5c6ccccc6[nH]c5c32)CNC4=O)C[C@@H](N)[C@H]1O,"viral replication, refers to: nucleocapsid protein","Calu-3, Omicron BA.1",,,EC50,1.7 µM
Cc1ccc(N2CC(N3CCC(C)(O)CC3)C2)cc1C(=O)NC1(c2ccc3c4c(cccc24)C(=O)N3C)CC1,viral replication,"Vero C1008, XBB.1",12.5 µM,,inhibition,100%
COc1ccc(-c2cnc3[nH]cc(C#Cc4cccnc4)c3c2)cc1OC,,Calu-3,5 µM,,viral infection,no effect
Cc1ccc(N2CCN(C)CC2)cc1C(=O)NC1(c2ccc3c4c(cccc24)CC3)CC1,viral replication,"Vero C1008, Omicron BA.5",0.1543 µM,,inhibition,0%
O=C(CCN(Cc1ccco1)C(=O)c1csc(Nc2ccccc2)n1)NCc1cccc(C(F)(F)F)c1,,A549-ACE2,,reference: CC50 over EC50,selectivity index,> 3
CN=c1nc(-c2ccccc2)n(-c2ccccc2)s1,,Huh-7,,reference: CC50 over EC50,selectivity index,inactive
O=P(O)(O)Oc1c2c(c(OP(=O)(O)O)c3c1C1CC3c3cc4c(cc31)C1CC4c3ccccc31)C1CC2c2cc3c(cc21)C1CC3c2ccccc21,spike pseudoparticle entry,Caco-2,,,IC50,35 µM
Cc1ccc(N2CC(N3CCC(C)(O)CC3)C2)cc1C(=O)NC1(c2ccc3c4c(cccc24)CC3)CC1,viral replication,"Vero C1008, Omicron BA.5",0.1543 µM,,inhibition,5%
Cc1oc2nc1C(=O)N[C@](C)(C(=O)OC(C)C)c1nc(c(C)o1)C(=O)N[C@](C)(C(=O)OC(C)C)c1nc(c(C)o1)C(=O)N[C@]2(C)C(=O)OC(C)C,viral replication,"Vero E6, NRC-03-nhCoV",5 µM,,inhibition,6%

# Some of these lines once more:
SMILES,test,test system,conditions,scale,endpoint,value
CC(=O)OC1(C)CC(C=C(C)CCC=C(C)C)OC2(C=C(CO)C3CC(=O)C(C)=CC3O2)C1 (stereo not drawn),"viral replication, refers to: nucleocapsid protein","Calu-3, Omicron BA.5",,,EC50,0.3 µM
Cc1ccc(N2CC3CC(C2)N3)cc1C(=O)NC1(c2ccc3c4c(cccc24)C(=O)N3C)CC1,viral replication,"Vero C1008, Omicron BA.5",0.01715 µM,,inhibition,0%
CCn1ccc(-c2cc(-c3cnn(C)c3)cc([C@@H](C)NC(=O)c3cc(OCCN(C)C)ccc3C)c2)n1,viral replication,icSARS-CoV-2-nLuc reporter,,,EC90,1.59 µM
